Experimental data of several laboratories.
Each numbered part is a random draw from the data of one study; scales do not carry over between parts.

Sample 1
Target: Runt-related transcription factor 1, full length (RUNX1, Homo sapiens, UniProt Q01196-8, residues 1-480)
Method: protein-binding microarray
Molecule type: hairpin DNA
Medium: in vitro
Tested at: not given
Notes: whole hairpin DNA, median over replicate spots
Reference: not given
Reading: higher = stronger binding
Measurement: median fluorescence
GAGGCCCGTCGCGGTTGGCCTCCTGGCCAACCGCGACGGGCCTCACACTC: 2670 a.u.
GAGGCCTGTTGCGGTGGGCCTCCTGGCCCACCGCAACAGGCCTCACACTC: 3210 a.u.
GAGGCCTGTCGTGGTTGGCCTCCTGGCCAACCACGACAGGCCTCACACTC (5mC at 34): 2030 a.u.
GAGGCCTGTCGCGGTTGGCCTCCTGGCCAACCGCGACAGGCCTCACACTC (5mC at 10): 4680 a.u.
GAGGCCTGTTGCGGTTCGCCTCCTGGCGAACCGCAACAGGCCTCACACTC: 4070 a.u.
CTCAGCTCTGTGGGCTGGACTCCTGTCCAGCCCACAGAGCTGAGACACTC (5mC at 6): 1910 a.u.
GAGGCCTGCGGCGGTTGGCCTCCTGGCCAACCGCCGCAGGCCTCACACTC (5mC at 9 35): 3000 a.u.
CTCAGTTCTGTGGCGTGGACTCCTGTCCACGCCACAGAACTGAGACACTC (5mC at 30): 1950 a.u.
GAGGCCTGTCGCGGTTGGCCTCCTGGCCAACCGCGACAGGCCTCACACTC (5mC at 32 34): 1770 a.u.
GACGCCTGTCGCGGTTGGCCTCCTGGCCAACCGCGACAGGCGTCACACTC (5mC at 3): 2510 a.u.
GAGGCCTGCTGTGGTTGGCCTCCTGGCCAACCACAGCAGGCCTCACACTC (5mC at 9): 2630 a.u.
GAGGCCTGTTTCGGTTGGCCTCCTGGCCAACCGAAACAGGCCTCACACTC: 1800 a.u.
GAGGCCTGCGGTGGTTGGCCTCCTGGCCAACCACCGCAGGCCTCACACTC (5mC at 35): 2150 a.u.
GAGGCCCAACCGCAACGGCCTCCTGGCCGTTGCGGTTGGGCCTCACACTC (5mC at 28): 5940 a.u.
GAGGCCCAACCCGAACAGCCTCCTGGCTGTTCGGGTTGGGCCTCACACTC: 1980 a.u.
GAGGCCTGCTGCGGTTGGCCTCCTGGCCAACCGCAGCAGGCCTCACACTC: 4360 a.u.
GAGGCCTGTTGTGGTTGGCCTCCTGGCCAACCACAACAGGCCTCACACTC (5mC at 34): 3810 a.u.

Sample 2
Target: Interferon regulatory factor 3, full length, phosphomimetic (IRF3, Homo sapiens, UniProt Q14653, residues 1-427, S386D/S396D/S398D/S402D/T404D/S405D)
Method: protein-binding microarray
Molecule type: double-stranded DNA, one strand shown
Medium: in vitro
Tested at: 2540 nM top
Notes: 60-bp whole probe
Together with: salmon DNA 0.4 mg/ml
Reference: random background probes
Reading: higher = stronger binding
Measurement: fitted relative affinity
All sequences stand within: GCCTAGCAC … GTCTTGATTCGCTTGACGCTGCTG
Construct (chain): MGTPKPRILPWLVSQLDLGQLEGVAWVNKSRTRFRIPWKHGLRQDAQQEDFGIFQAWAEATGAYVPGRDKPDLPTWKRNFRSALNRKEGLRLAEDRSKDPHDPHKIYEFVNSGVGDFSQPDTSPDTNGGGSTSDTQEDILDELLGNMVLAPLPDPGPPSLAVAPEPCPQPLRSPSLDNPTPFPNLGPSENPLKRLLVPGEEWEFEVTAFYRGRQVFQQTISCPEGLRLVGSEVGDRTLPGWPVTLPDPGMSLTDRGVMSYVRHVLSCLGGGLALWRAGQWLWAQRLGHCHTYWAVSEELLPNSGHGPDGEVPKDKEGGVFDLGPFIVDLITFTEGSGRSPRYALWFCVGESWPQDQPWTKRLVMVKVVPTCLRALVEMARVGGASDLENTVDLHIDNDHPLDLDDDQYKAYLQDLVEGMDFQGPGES
TTAGGTTTCCTACTGCTCTAGTGCTAG: 4.9 z-score
ATAGGTTTCGGTTCCGGTTAGTGCTAG: 11.1 z-score
CCGCCGCCTGGCTGGGGGATGTGCTAG: -1.07 z-score
GACGGGCTGGGACTGGGGACGTGCTAG: -1.2 z-score
TACTTTCTATCTCTGTTTTTGTGCTAG: 4.79 z-score
GACGATATCAGACTGGACACGTGCTAG: 0.262 z-score
TTAGGACTGTGACTGGGTTAGTGCTAG: -0.784 z-score
GACGGACTGGGGACTGGGAACGTGCTA: -0.944 z-score
GACGGACTGGACTAGCGGGACGTGCTA: -0.682 z-score
CCCTGGCTCCCTATAAAAGGGTGCTAG: 0.163 z-score
AGGAATTTCCCACTTTCACTGTGCTAG: 2.53 z-score
GACGGTCTCATTCTCCTGACGTGCTAG: 2.66 z-score
GGCGGACTGCTTCTCCTGACGTGCTAG: -0.429 z-score
TTAGATCTCAGTTTCGAGTAGTGCTAG: 1.88 z-score
TTAGGACGGGGGTATCGGTTAGTGCTA: 0.577 z-score
TTAGGTTTCGGTCTAGGTTAGTGCTAG: 7.3 z-score
TTAGATTTCGGGGATCGATTAGTGCTA: 0.512 z-score
TTAGGACTGGGTTTGGGTTAGTGCTAG: -0.83 z-score
TTAGGACTGGGGGATCGGTTAGTGCTA: -0.39 z-score

Sample 3
Target: Fragile X messenger ribonucleoprotein 1, C-terminal low-complexity region (Fmr1, Mus musculus, UniProt P35922)
Method: RNA Bind-n-Seq
Molecule type: RNA
Medium: in vitro
Tested at: 200 nM
Notes: whole 134-nt RNA, ends assumed
Together with: 150 mM LiCl
Reference: input library
Reading: higher = stronger binding
Measurement: log2 enrichment
Each molecule: 7-deaza-guanosine replaces G
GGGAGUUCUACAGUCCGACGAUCUAACUUUAGAGGAGGAUCUGAUGGAUAUGGCAGUGGACGUGGAUUUGGGGAUGGCCAUAAUGGGUAUGGAGGAGGACCUGGAGGUGGCAAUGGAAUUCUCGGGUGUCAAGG: -0.372
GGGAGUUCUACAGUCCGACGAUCUGGCCCUGGUGGCAUGCGGGGAGGAAGAGGUGGCCUCAUGGAUCGUCGUGGUCCCGGUGGAAUGUUCAGAGGUGGCCGUGGUGGAGACAGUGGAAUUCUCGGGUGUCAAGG: 0.691
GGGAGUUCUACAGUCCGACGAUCAGGCCCUGGUGGCAUGCGGGGAGGAAGAGGUGGCCUCAUGGAUCGUGGUGGUCCCGGUGGAAUGUUCAGAGGUGGCCGUGGUGGAGACAGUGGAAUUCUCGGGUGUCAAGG: -0.751
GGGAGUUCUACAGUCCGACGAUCGGCGGAGCAGCUGAUGGAGGAGUGGAACGAAGACCUAGACGGCAUGGAGGGUUUCGUGCUGGAGGGCAAGAAGUUUGCGCGGCUGCCGGAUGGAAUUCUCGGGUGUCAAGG: -2.09
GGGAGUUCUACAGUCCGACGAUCUGCUGGAGUGGCAGAAGACUUUUGAGGAGAAGCUCACGCCGUUGCUGAGUGUGCGGGAGUCACUCUCAGAGGAAGAGGCCCAGAAGAUGGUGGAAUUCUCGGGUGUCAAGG: -2.38
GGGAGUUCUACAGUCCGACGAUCAGUCCUGUGCUACACAUCGUAUGUACCGAAUCGGGUUUUUGGGAAAAAGGGUUUGGGAAAGUAUUAUGUUACGCCGUUCGGAUCUGCACUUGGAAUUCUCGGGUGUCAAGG: -3.13
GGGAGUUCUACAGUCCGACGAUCUCAAGUCCUGUGCUACACAUCGUAUGUACCGAAUCGGAAGGGGAAGGGAAGGGGAAAGUAUUAUGUUACGCCGUUCGGAUCUGCACUUCCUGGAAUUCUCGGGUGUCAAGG: -0.457
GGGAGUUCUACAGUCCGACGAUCAAGUCCUGUGCUACACAUCGUAUGUACCGAAUCGGAAAAGGGAAAAGGGAAAAGGGGAAAGUAUUAUGUUACGCCGUUCGGAUCUGCACUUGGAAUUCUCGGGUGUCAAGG: 0.287

Sample 4
Target: RNA binding protein fox-1 homolog 2, RRM domain, GST-SBP tag (RBFOX2, Homo sapiens, UniProt O43251-10, residues 100-194)
Method: RNA Bind-n-Seq
Molecule type: RNA
Medium: in vitro
Tested at: 365 nM
Notes: natural RNA segment, single round, ends assumed
Reference: no-protein control
Reading: higher = stronger binding
Measurement: RBNS enrichment (R)
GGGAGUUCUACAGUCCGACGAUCACUAGACAAAAUAAGUUUUAACAACUUCUCUACAUAUCUGUAAAGAAAAGUAUUUUCUGUUAAUUUUUUUAAUUUUUGGCCAAAUUAUUUUCUCUUUGUCAUUAAAGUCAUGGAAUUCUCGGGUGCCAA: 0.777
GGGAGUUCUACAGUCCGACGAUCUUCCACUUGUAUAAUUUAAGUCUUAGCUCUUUCAGAUGCAAGAAACUUAUACUAUUAAAAUUGUUGCGAUGUCACUUAGCUUGACUUUAAAGUUGGCUGGACUGUUAUACUGGAAUUCUCGGGUGCCAA: 0.417
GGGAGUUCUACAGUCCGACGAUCUCUGCAGAGCAGGCCCACUUCCUGUCCCUGAGCCCAUCUUCAUUUCUAGAGGGCUGACCCUGAGCACUCCAGAGUGCUUGCAGAGUUUGAGAAAUGUGAACAUGCUGUGGUGGAAUUCUCGGGUGCCAA: 0.433
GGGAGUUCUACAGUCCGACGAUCAAACCGGCACCUGCCAGACAGAGCUGGUUCUAAGAUUUAAUACAGUGCUUUUUUUCCUCUUUGAAAUAUUUUACUUUAAUACCAGUGCCUUUUCUUGUUGAACUUCUUGGUGGAAUUCUCGGGUGCCAA: 0.576
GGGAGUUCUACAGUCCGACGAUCGUCUGGCUCUCAGGCUGUAGGCAGUGAUGGGGCAGCACAAGGCUGGAUAAAUCCCUUCCCUAUUGACCUUCUUACAUAGUGCAAGCAAUAAGACUUAUUGAUCUGUGUGUUGGAAUUCUCGGGUGCCAA: 0.504
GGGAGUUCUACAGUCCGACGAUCCACUCUUUUUCUCGGCGAAUGCUUGGAACUGGGUGCUGAGUGCUGGAACUAGCCUUGUGUCUAUGAGGGCACCCUUCAGCUCACUCCACCCCCCAGGUAGACAGGUGCAUUGGAAUUCUCGGGUGCCAA: 0.597
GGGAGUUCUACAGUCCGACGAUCCCCCCUCUCAUCCCGGAAGAAGAGGAAGAAGCAGAACAGACUAGUUUUGAGUAAACUCAGUAUGCAUGUGUGAAUGCUGAAUCACAGGAAUGGUGUUGAGGCUACCAAGAUGGAAUUCUCGGGUGCCAA: 15.5
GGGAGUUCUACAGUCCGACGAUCGGGAUGGGGCCAUCUCCUUCACCGUGGCUACCAUUGUCACUCGUAGGGGAUGUGGAGUGAGAACAGCAUUUAGUGAAGUUGUGCAACGGCCAGGGUUGUGCUUUCUAGCAUGGAAUUCUCGGGUGCCAA: 2.75

For quick reference, copied from above (sample 3):
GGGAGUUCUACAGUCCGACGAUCUGGCCCUGGUGGCAUGCGGGGAGGAAGAGGUGGCCUCAUGGAUCGUCGUGGUCCCGGUGGAAUGUUCAGAGGUGGCCGUGGUGGAGACAGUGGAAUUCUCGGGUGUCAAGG: 0.691
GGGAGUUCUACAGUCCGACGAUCAGGCCCUGGUGGCAUGCGGGGAGGAAGAGGUGGCCUCAUGGAUCGUGGUGGUCCCGGUGGAAUGUUCAGAGGUGGCCGUGGUGGAGACAGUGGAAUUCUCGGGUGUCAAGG: -0.751
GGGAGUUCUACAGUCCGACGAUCGGCGGAGCAGCUGAUGGAGGAGUGGAACGAAGACCUAGACGGCAUGGAGGGUUUCGUGCUGGAGGGCAAGAAGUUUGCGCGGCUGCCGGAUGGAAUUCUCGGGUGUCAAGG: -2.09
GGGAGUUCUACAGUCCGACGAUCUGCUGGAGUGGCAGAAGACUUUUGAGGAGAAGCUCACGCCGUUGCUGAGUGUGCGGGAGUCACUCUCAGAGGAAGAGGCCCAGAAGAUGGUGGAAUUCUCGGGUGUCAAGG: -2.38
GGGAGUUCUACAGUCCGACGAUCAGUCCUGUGCUACACAUCGUAUGUACCGAAUCGGGUUUUUGGGAAAAAGGGUUUGGGAAAGUAUUAUGUUACGCCGUUCGGAUCUGCACUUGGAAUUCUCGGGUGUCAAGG: -3.13
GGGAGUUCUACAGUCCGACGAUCUCAAGUCCUGUGCUACACAUCGUAUGUACCGAAUCGGAAGGGGAAGGGAAGGGGAAAGUAUUAUGUUACGCCGUUCGGAUCUGCACUUCCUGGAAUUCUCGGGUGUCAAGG: -0.457
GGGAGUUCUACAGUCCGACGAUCAAGUCCUGUGCUACACAUCGUAUGUACCGAAUCGGAAAAGGGAAAAGGGAAAAGGGGAAAGUAUUAUGUUACGCCGUUCGGAUCUGCACUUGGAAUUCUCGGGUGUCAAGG: 0.287
